Results of several laboratories.
± gives the spread as reported.
Cell line: MDA-MB-231

| SMILES | read-out | method | refers to | time | notes | IC50 |
| --- | --- | --- | --- | --- | --- | --- |
| O=c1c(O)c(-c2ccc(O)c(O)c2)oc2cc(O)cc(O)c12 | cell growth or viability | trypan blue | – | 72 h | – | 101 µM |
| O=C(CN1CCN(c2ccc(Cl)cc2)CC1)Nc1ccc(C(=O)C=Cc2ccc(Br)cc2)cc1 | cell growth or viability | MTT | – | – | – | 63.4 µM |
| C#Cc1cccc(Nc2ncnc3cc(OCCOC)c(OCCOC)cc23)c1 | cell growth or viability | MTT | – | – | – | 1.02 µM |
| O=c1[nH]nc(O)c2c(-c3cccc([N+](=O)[O-])c3)c3n(c12)CCn1cccc1-3 | cell growth or viability | MTT | – | 48 h | – | 13.1 µM |
| CC(=O)c1nn(-c2cccc(C)c2)/c(=N/N=C(\C)c2ccc(NC(=O)c3cccnc3)cc2)s1 | cytotoxicity | MTT | – | 24 h | – | 13.8 ± 1.2 µM |
| O=C(/C=C/c1ccc(O)cc1)CC(=O)/C=C/c1ccc(O)cc1 | cell growth or viability | MTT | – | 48 h | – | 12.1 µg/mL |
| O=C(CN1CCN(c2ccc(Cl)cc2)CC1)Nc1ccc(C(=O)C=Cc2ccco2)cc1 | cell growth or viability | MTT | – | – | – | 4.8 µM |
| COc1cc2c(cc1O)CC[C@@H]1[C@@H]2CC[C@]2(C)[C@@H](O)CC[C@@H]12 | cell growth or viability | MTT | – | 48 h | – | 1.27 µM |
| O=c1[nH]nc(O)c2c(-c3ccc(Br)cc3)c3n(c12)CCn1cccc1-3 | cell growth or viability | MTT | – | 48 h | – | 58 µM |
| COc1ccc(C=CC(=O)c2ccc(NC(=O)CN3CCN(c4ccc(Cl)cc4)CC3)cc2)cc1 | cell growth or viability | MTT | – | – | – | 38.7 µM |
| COC(=O)[C@H]1Cc2c([nH]c3ccccc23)[C@H](c2ccc(Cl)cc2Cl)N1 | cell growth or viability | ATP luminescence | – | – | – | < 10 µM |
| COc1cc2c(NC3CCN(C(C)C)CC3)nc(C3CCCCC3)nc2cc1OCCCN1CCCC1 | – | in-cell western | H3K9me2 | 48 h | – | 0.081 ± 0.009 µM |
| N#CC(C(=O)Nc1cccc(C(F)(F)F)c1)=C1Sc2nc3ccc(S(=O)(=O)N4CCCC4)cc3nc2S1 | cell growth or viability | MTT | – | 24 h | – | 7.66 µM |
| COc1ccc(-c2cc(=O)n3c(ccn3Cc3cn([C@H]4O[C@@H](COC(C)=O)[C@H](OC(C)=O)[C@@H](OC(C)=O)[C@@H]4OC(C)=O)nn3)n2)cc1 (stereo in doubt) | cell growth or viability | MTT | – | 72 h | – | 27.7 µM |
| COc1ccc(N2CCN(CC(=O)Nc3ccc(C(=O)C=Cc4ccccc4)cc3)CC2)cc1 | cell growth or viability | MTT | – | – | – | 58.7 µM |
| O=C(NO)c1ccc(Cn2cc(Cn3cnc4ccc(I)cc4c3=O)nn2)cc1 | cell growth or viability | MTT | – | 48 h | – | 4.56 µM |
| O=C(COc1ccccc1C1=Nn2c(nnc2-c2ccccc2)SC1)NCCCNC(=O)COc1ccccc1C1=Nn2c(nnc2-c2ccccc2)SC1 | cell growth or viability | MTT | – | – | – | 8.01 µM |
| COC(=O)c1c(-c2ccc(Cl)cc2)c2n(c1C(=O)OC)CCn1cccc1-2 | cell growth or viability | MTT | – | 48 h | – | 75.7 µM |
| COc1ccc(C2CC(c3ccc(NC(=O)CN4CCN(c5ccc(Cl)cc5)CC4)cc3)=NN2C(C)=O)cc1 (stereo not drawn) | cell growth or viability | MTT | – | – | – | 89.4 µM |
| O=c1cc(-c2ccccc2)oc2cc(O)cc(O)c12 | cell growth or viability | trypan blue | – | 72 h | – | 40 µM |
| COc1ccccc1C(=O)N[C@H](C(=O)Nc1ccc(C(=O)NO)cc1)c1ccccc1 | cell growth or viability | MTT | – | 48 h | – | 6.67 µM |
| CCn1c[n+](CC)c2ccc(C(=O)OC)cc21 | cell growth or viability | crystal violet | – | 96 h | – | > 100 µM |
| O=C(COc1ccc(C2=Nn3c(nnc3-c3ccccc3)SC2)cc1)NCCCNC(=O)COc1ccc(C2=Nn3c(nnc3-c3ccccc3)SC2)cc1 | cell growth or viability | MTT | – | – | – | 10.9 µM |
| O=C(NO)c1ccc(Cn2cc(Cn3cnc4ccc(F)cc4c3=O)nn2)cc1 | cell growth or viability | MTT | – | 48 h | – | 7.99 µM |

| SMILES | read-out | method | refers to | time | notes | IC50 |
| --- | --- | --- | --- | --- | --- | --- |
| COC(=O)c1c(-c2ccc(Br)cc2)c2n(c1C(=O)OC)CCn1cccc1-2 | cell growth or viability | MTT | – | 48 h | – | 82.7 µM |
| COCCOc1cc2ncnc(Nc3cccc(-c4cn(CCOCCOCCOCCNC(=S)NCCc5ccc(S(N)(=O)=O)cc5)nn4)c3)c2cc1OCCOC | cell proliferation | flow cytometry cell count | – | 72 h | hypoxia 1% O2 | 48.5 µM |
| COc1cc(C2CC(c3ccc(NC(=O)CN4CCN(c5ccc(Cl)cc5)CC4)cc3)=NN2C(C)=O)cc(OC)c1OC (stereo not drawn) | cell growth or viability | MTT | – | – | – | 33.8 µM |
| Clc1nc(Cl)c2[nH]ccc2n1 | cell growth or viability | WST-1 | – | 72 h | – | 9.7 µM |
| O=C(COc1ccc(C2=Nn3c(nnc3-c3ccccc3)SC2)cc1)NCCNC(=O)COc1ccc(C2=Nn3c(nnc3-c3ccccc3)SC2)cc1 | cell growth or viability | MTT | – | – | – | 31.7 µM |
| CC(=O)OC[C@@H]1O[C@H](n2cc(Cn3ccc4nc(-c5ccc6c(c5)OCO6)cc(=O)n43)nn2)[C@@H](OC(C)=O)[C@H](OC(C)=O)[C@H]1OC(C)=O (stereo in doubt) | cell growth or viability | MTT | – | 72 h | – | 39.5 µM |
| COc1ccc(/C=C/C(=O)O[C@@H]2[C@@H](O)[C@@H](O)[C@H](O[C@H]3[C@@H]4C=CO[C@@H](O[C@@H]5O[C@H](CO)[C@@H](O)[C@H](O)[C@H]5O)[C@@H]4[C@@]4(CO)O[C@@H]34)O[C@H]2C)cc1 | cell growth or viability | MTT | – | – | – | 29.2 µM |
| Cc1cc2ncc(-c3ccc(OCC(=O)NCCNC(=O)COc4ccc(-c5cnc6cc(C)c(C)cc6n5)cc4)cc3)nc2cc1C | cell growth or viability | MTT | – | – | – | 22.4 µM |
| O=C(/C=C/c1ccc(Cn2cc(Cn3cnc4ccc(Br)cc4c3=O)nn2)cc1)NO | cytotoxicity | MTT | – | 48 h | – | 8.41 ± 1.29 µM |
| CC(=O)N1N=C(c2ccc(NC(=O)CN3CCN(c4ccc(Cl)cc4)CC3)cc2)CC1c1ccccc1 (stereo not drawn) | cell growth or viability | MTT | – | – | – | 68.3 µM |
| COC(=O)c1c(-c2ccc(O)c(OC)c2)c2n(c1C(=O)OC)CCn1cccc1-2 | cell growth or viability | MTT | – | 48 h | – | 42 µM |
| CC(=O)OC[C@H]1O[C@@H]([S-])[C@H](OC(C)=O)[C@@H](OC(C)=O)[C@@H]1OC(C)=O.CCP(CC)CC.[Au+] | cell growth or viability | crystal violet | – | 96 h | – | 1.2 µM |
| COc1cccc2c1C(=O)c1c(O)c3c(c(O)c1C2=O)C[C@@](O)(C(=O)CO)C[C@@H]3O[C@H]1C[C@H](N)[C@H](O)[C@H](C)O1 | cell growth or viability | MTT | – | 48 h | – | 1.2 µM |
| Cc1ccc(-c2c3n(c4c(=O)[nH]nc(O)c24)CCn2cccc2-3)cc1 | cell growth or viability | MTT | – | 48 h | – | 65.5 µM |
| COc1ccc(C=CC(=O)c2ccc(NC(=O)CN3CCN(c4ccc(OC)cc4)CC3)cc2)cc1 | cell growth or viability | MTT | – | – | – | 23.1 µM |
| COc1cc(/C=C/C(=O)CC(=O)/C=C/c2ccc(O)c(OC)c2)ccc1O | cell viability | MTT | – | 48 h | serum-free medium | 11 ± 3 µg/mL |
| O=C(NO)c1ccc(Cn2cc(Cn3cnc4ccc(Br)cc4c3=O)nn2)cc1 | cell growth or viability | MTT | – | 48 h | – | 15.8 µM |
| COc1cccc(-c2c3n(c4c(=O)[nH]nc(O)c24)CCn2cccc2-3)c1 | cell growth or viability | MTT | – | 48 h | – | 64.5 µM |
| O=C(COc1ccc(C2=Nn3c(nnc3-c3ccccc3)SC2)cc1)NCCCCNC(=O)COc1ccc(C2=Nn3c(nnc3-c3ccccc3)SC2)cc1 | cell growth or viability | MTT | – | – | – | 15 µM |
| O=C(NO)c1ccc(NC(=O)[C@@H](NC(=O)c2ccc(F)cc2)c2ccccc2)cc1 | cell growth or viability | MTT | – | 48 h | – | 4.78 µM |
| COc1cc(-c2c3n(c4c(=O)[nH]nc(O)c24)CCn2cccc2-3)ccc1O | cell growth or viability | MTT | – | 48 h | – | 15.1 µM |
| O=C(NO)c1ccc(Cn2cc(Cn3cnc4ccccc4c3=O)nn2)cc1 | cell growth or viability | MTT | – | 48 h | – | 14.1 µM |
| CC/C(=C(\c1ccccc1)c1ccc(OCCN(C)CCOCCOCCOc2ccc3[nH]cc(CCNC(C)=O)c3c2)cc1)c1ccccc1 | cell survival | MTT | – | day 9 | dosed days 2, 4, 7 | 27.6 µM |
| COc1ccc(C(=O)N[C@H](C(=O)Nc2ccc(C(=O)NO)cc2)c2ccccc2)cc1 | cell growth or viability | MTT | – | 48 h | – | 4.65 µM |

A few entries again:
| SMILES | read-out | method | refers to | time | notes | IC50 |
| --- | --- | --- | --- | --- | --- | --- |
| COCCOc1cc2ncnc(Nc3cccc(-c4cn(CCOCCOCCOCCNC(=S)NCCc5ccc(S(N)(=O)=O)cc5)nn4)c3)c2cc1OCCOC | cell proliferation | flow cytometry cell count | – | 72 h | hypoxia 1% O2 | 48.5 µM |
| COc1ccc(-c2cc(=O)n3c(ccn3Cc3cn([C@H]4O[C@@H](COC(C)=O)[C@H](OC(C)=O)[C@@H](OC(C)=O)[C@@H]4OC(C)=O)nn3)n2)cc1 (stereo in doubt) | cell growth or viability | MTT | – | 72 h | – | 27.7 µM |
| O=C(NO)c1ccc(Cn2cc(Cn3cnc4ccc(F)cc4c3=O)nn2)cc1 | cell growth or viability | MTT | – | 48 h | – | 7.99 µM |
| CCn1c[n+](CC)c2ccc(C(=O)OC)cc21 | cell growth or viability | crystal violet | – | 96 h | – | > 100 µM |
| O=c1cc(-c2ccccc2)oc2cc(O)cc(O)c12 | cell growth or viability | trypan blue | – | 72 h | – | 40 µM |
| COc1ccc(C=CC(=O)c2ccc(NC(=O)CN3CCN(c4ccc(Cl)cc4)CC3)cc2)cc1 | cell growth or viability | MTT | – | – | – | 38.7 µM |
| O=C(NO)c1ccc(NC(=O)[C@@H](NC(=O)c2ccc(F)cc2)c2ccccc2)cc1 | cell growth or viability | MTT | – | 48 h | – | 4.78 µM |
